Measured values pooled from the literature.
Several values in a cell are separate wells, animals, samples, runs or records. Numbers after ± are the reported error.
Organism: HIV-1

| Structure (SMILES) | test | system | conditions | IC50 |
| --- | --- | --- | --- | --- |
| NC[C@H](NC(=O)c1ccc(-c2cc(F)c(Cl)c(F)c2)[nH]1)c1ncc(CO)s1 (single isomer, unassigned) | viral infection | TZM-bl, Env-pseudovirus panel | range over panel | 0.27 to 0.89 µM |
| CC1(C)Oc2ccc(-c3ccc(C(=O)NC(CN)c4ncc(CO)s4)[nH]3)cc2O1 (stereo not drawn) | pseudovirus infection | TZM-bl | – | > 24 µM |
| O=c1cc(-c2ccc(O)c(O)c2)oc2cc(O)cc(O)c12 | viral replication | TZM-bl, BaL, CCR5-tropic | 48 h | 2.22 ± 0.69 µM |
| CSCC[C@@H]1NC(=O)[C@H](Cc2ccc(O)cc2)NC(=O)[C@@H](NC(=O)[C@H](CC(C)C)NC(=O)[C@@H](N)CCCNC(=N)N)CSSC[C@@H](C(=O)N2CCC[C@H]2C(=O)O)NC(=O)[C@@H]2CCCN2C(=O)[C@H](CC(C)C)NC(=O)[C@H](C(C)C)NC1=O | HIV-1 Env cell-cell fusion | CHO-WT and MT2 cells | 48 h, 37 °C | 6.57 ± 0.25 µM |
| Nc1nc(NC2CC2)c2ncn([C@H]3C=C[C@@H](CO)C3)c2n1 | viral cytopathicity | MT4 cells, wild type | – | 0.262 µM |
| [Cl-].[Cl-].[Cl-].[Cl-].[O]=[V+2].[O]=[V+2].c1cc(CN2CCCNCCNCCCNCC2)ccc1CN1CCCNCCNCCCNCC1 | viral cytopathic effect | MT4 cells, IIIB | – | 0.119 µM and 0.117 µM |
| CC(C)C[C@H](NC(=O)CCCCCNC(=O)CCCC[C@@H]1SC[C@@H]2NC(=O)N[C@@H]21)C(=O)N[C@@H](CS)C(=O)N[C@@H](CC(=O)O)C(=O)N[C@@H](CO)C(=O)N1CCC[C@H]1C(=O)N[C@@H](CC(N)=O)C(=O)NCC(=O)N1CCC[C@H]1C(=O)N[C@@H](Cc1c[nH]c2ccccc12)C(=O)N[C@H](C(=O)N[C@@H](Cc1c[nH]c2ccccc12)C(=O)N[C@H](C(=O)N1CCC[C@H]1C(=O)N[C@@H](C)C(=O)N[C@@H](Cc1ccccc1)C(=O)N[C@@H](CO)C(=O)N[C@@H](CCC(N)=O)C(=O)N[C@@H](C)C(=O)N[C@H](C(=O)NCC(=O)O)C(C)C)C(C)C)C(C)C | viral replication, inhibitor, SEAP reporter | CEMx174 SEAP reporter, NL4-3 | 3 days | 54.6 ± 10 µM |
| Cc1c(O)cccc1C(=O)N[C@@H](CSc1ccccc1)[C@H](O)CN1C[C@H]2CCCC[C@H]2C[C@H]1C(=O)NC(C)(C)C | viral replication | PBMC, Ba-L, R5 | – | 0.012 ± 0.008 µM |
| CC[C@H](C)[C@H](NC(=O)[C@H](CC(C)C)NC(=O)[C@H](CCC(=O)O)NC(=O)[C@H](CCC(=O)O)NC(=O)[C@@H](NC(=O)[C@H](CCCCN)NC(=O)[C@H](CCCCN)NC(=O)[C@@H](NC(=O)[C@H](Cc1ccc(O)cc1)NC(=O)[C@H](CCC(=O)O)NC(=O)[C@H](CCC(=O)O)NC(=O)[C@@H](NC(=O)[C@H](CCCCN)NC(=O)[C@H](CCCCN)NC(=O)[C@H](CC(=O)O)NC(=O)[C@H](Cc1c[nH]c2ccccc12)NC(=O)[C@H](CCC(=O)O)NC(=O)[C@H](CCC(=O)O)NC(=O)[C@H](Cc1c[nH]c2ccccc12)NC(=O)[C@@H](NC(=O)[C@@H](N)CCSC)[C@@H](C)O)[C@@H](C)CC)[C@@H](C)O)[C@@H](C)CC)C(=O)N[C@@H](CCCCN)C(=O)N[C@@H](CCCCN)C(=O)N[C@@H](CO)C(=O)O | virus neutralization | MN | – | 0.102 ± 0.0299 µM |
| CC(=O)N[C@@H](CO)C(=O)N[C@@H](CO)C(=O)N[C@@H](Cc1c[nH]cn1)C(=O)N[C@@H](Cc1ccccc1)C(=O)N1CCC[C@H]1C(=O)N[C@@H](Cc1c[nH]c2ccccc12)C(=O)N[C@@H](CO)C(=O)N[C@@H](CCC(N)=O)C(=O)N[C@@H](Cc1ccc(O)cc1)C(=O)N[C@@H](CCC(N)=O)C(=O)N[C@@H](Cc1ccccc1)C(=O)N[C@@H](Cc1c[nH]c2ccccc12)C(=O)N[C@@H](CCCCN)C(N)=O | viral entry | TZM-bl, YU2 (R5) pseudovirus | 48 h | 122 ± 19 µM |
| Cc1ccc(-c2ccc3c(c2)C=C(C(=O)Nc2ccc(C[N+](C)(C)C4CCOCC4)cc2)CCC3)cc1 | viral replication | PBMC | – | 0.014 ± 0.008 µM |
| CCCOn1cc(CC(=O)Nc2ccncc2Cl)c2ccccc21 | viral replication | HEK293T | – | 0.07 ± 0.02 µM |
| COc1cc(/C=C/C(=O)CC(=O)/C=C/c2ccc(OC(=O)[C@H](Cc3ccccc3)NC(=O)[C@@H](N)Cc3c[nH]c4ccccc34)c(OC)c2)ccc1OC(=O)[C@H](Cc1ccccc1)NC(=O)[C@@H](N)Cc1c[nH]c2ccccc12 | viral replication, MTT | MT-4, IIIB | – | > 0.094 µM |
| Cc1cn(C2CC(O)C(C#N)(CO)O2)c(=O)[nH]c1=O (stereo not drawn) | viral replication, MTT | MT4, K65R | – | 0.002 ± 1e-05 µM |
| Cc1nc(C(NC(=O)c2ccc(-c3ccc(Cl)cc3)[nH]2)C2CCCCN2)sc1CO (mixture of isomers) | Env pseudovirus infection | TZM-bl, panel of 56 Env pseudoviruses | – | 2.38 µM |
| Nc1ccn([C@@H]2CS[C@H](CO)O2)c(=O)n1 | viral replication, MTT | MT4 | – | 0.29 ± 0.08 µM |
| Cc1cn([C@H]2C[C@H](N=[N+]=[N-])[C@@H](CO)O2)c(=O)[nH]c1=O | virus neutralization | DU422 | – | 0.183 ± 0.0019 µM |
| N#C[C@]1(CO)O[C@@H](n2cnc3c(N)nc(N)nc32)C[C@@H]1O | – | NL4-3 wild type | – | 0.00016 µM |
| C=C(C)[C@]12C[C@@H](COC(=O)c3ccccc3)[C@@]34OC5(O[C@@H]1[C@@H]3[C@@H]1O[C@]1(COC(=O)c1ccccc1)[C@@H](O)[C@@]1(O)[C@H]4[C@H]([C@H](C)[C@@H]1OC(=O)c1ccccc1)[C@H](C)CCCCCC[C@H]5OC(=O)c1ccccc1)O2 | viral replication, inhibitor | MT-4 cells, NL4-3 NanoLuc-sec | 72 h | > 0.001 µM |
| Nc1nc(NC2CC2)c2ncn([C@H]3C=C[C@@H](CO)C3)c2n1 | viral replication, MTT | MT4 | – | 0.58 ± 0.03 µM |
| Cc1nc([C@@H](CN)NC(=O)c2ccc(-c3ccc(F)c(F)c3)[nH]2)sc1CO (single isomer, unassigned) | viral infection | TZM-bl, recombinant subtype A Env pseudoviruses | mean over panel | 4.33 ± 0.39 µM |
| Cc1cn([C@H]2C[C@H](N=[N+]=[N-])[C@@H](CO)O2)c(=O)[nH]c1=O | viral replication, MTT | MT4 | – | 0.03 ± 0.01 µM |
| Cc1ccnc2c1NC(=O)c1cccnc1N2C1CC1 | viral replication | HEK293T | – | 0.02 ± 0.003 µM |
| Nc1ccn([C@H]2CC[C@@H](CO)O2)c(=O)n1 | viral replication, MTT | MT4 | – | 0.33 ± 0.13 µM |
| CCCCCCCCCC(=O)Oc1ccc(/C=C/C(=O)CC(=O)/C=C/c2ccc(OC(=O)CCCCCCCCC)c(OC)c2)cc1OC | viral replication, MTT | MT-4, IIIB | – | > 0.081 µM |
| C#C[C@]1(CO)O[C@@H](n2cnc3c(N)nc(F)nc32)C[C@@H]1O | viral replication, MTT | MT4 | – | 0.0003 ± 0.0001 µM |
| CC(=O)N[C@@H](CC(C)C)C(=O)N[C@@H](CS)C(=O)N[C@@H](CC(=O)O)C(=O)N[C@@H](CS)C(=O)N1CCC[C@H]1C(=O)N[C@@H](CC(N)=O)C(=O)NCC(=O)N1CCC[C@H]1C(=O)N[C@@H](Cc1c[nH]c2ccccc12)C(=O)N[C@H](C(=O)N[C@@H](Cc1c[nH]c2ccccc12)C(=O)N[C@H](C(=O)N1CCC[C@H]1C(=O)N[C@@H](C)C(=O)N[C@@H](Cc1ccccc1)C(=O)N[C@@H](CS)C(=O)N[C@@H](CCC(N)=O)C(=O)N[C@@H](C)C(=O)N[C@H](C(=O)N[C@@H](CC(=O)O)C(N)=O)C(C)C)C(C)C)C(C)C | viral replication, inhibitor, SEAP reporter | CEMx174 SEAP reporter, NL4-3 | 3 days | 4.61 ± 1.06 µM |

For quick reference, copied from above:
| Structure (SMILES) | test | system | conditions | IC50 |
| --- | --- | --- | --- | --- |
| Nc1ccn([C@@H]2CS[C@H](CO)O2)c(=O)n1 | viral replication, MTT | MT4 | – | 0.29 ± 0.08 µM |
| CSCC[C@@H]1NC(=O)[C@H](Cc2ccc(O)cc2)NC(=O)[C@@H](NC(=O)[C@H](CC(C)C)NC(=O)[C@@H](N)CCCNC(=N)N)CSSC[C@@H](C(=O)N2CCC[C@H]2C(=O)O)NC(=O)[C@@H]2CCCN2C(=O)[C@H](CC(C)C)NC(=O)[C@H](C(C)C)NC1=O | HIV-1 Env cell-cell fusion | CHO-WT and MT2 cells | 48 h, 37 °C | 6.57 ± 0.25 µM |
| CCCCCCCCCC(=O)Oc1ccc(/C=C/C(=O)CC(=O)/C=C/c2ccc(OC(=O)CCCCCCCCC)c(OC)c2)cc1OC | viral replication, MTT | MT-4, IIIB | – | > 0.081 µM |
